Measured values from different studies.
Parts stem from different laboratories: compare values within a part only. Positions count from the first letter of the parent shown.

Series 1
Target: CCND3, cyclin fold, Cln2 fusion (human)
Technique: yeast growth competition, sequencing
Sample: yeast
Notes: weak parent motif
Reference: not given
Reading: higher = stronger binding
Starting sequence: CDKN1A docking peptide (human); SKACRRLFGPVDS; partner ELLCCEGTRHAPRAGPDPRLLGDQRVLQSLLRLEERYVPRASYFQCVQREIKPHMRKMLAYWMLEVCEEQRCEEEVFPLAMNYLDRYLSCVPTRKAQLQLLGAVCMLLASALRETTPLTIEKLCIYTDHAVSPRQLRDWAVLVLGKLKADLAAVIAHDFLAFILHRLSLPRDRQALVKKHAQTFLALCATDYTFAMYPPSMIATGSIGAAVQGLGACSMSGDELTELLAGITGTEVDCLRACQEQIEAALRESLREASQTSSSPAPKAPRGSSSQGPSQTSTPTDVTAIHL
For `D12H`, “normalised enrichment score” read 0.035.
For `G9Q`, “normalised enrichment score” read 0.287.
`P10C` — result for “normalised enrichment score”: 0.297.
For `F8K`, “normalised enrichment score” read 0.137.

Series 2
Target: Interferon regulatory factor 5, full length, phosphomimetic (IRF5, Homo sapiens, UniProt Q13568-2, residues 1-514, S451D/S453D/S456D/S462D)
Technique: protein-binding microarray
Form: double-stranded DNA, one strand shown
Sample: in vitro
Concentration: 940 nM top
Notes: 60-bp whole probe
Together with: salmon DNA 0.4 mg/ml
Reference: random background probes
Reading: higher = stronger binding
Shared flanks, not repeated: GCCTAGCAC … GTCTTGATTCGCTTGACGCTGCTG
`GACAATTTCGGGTATCGAGACGTGCTA` — result for “fitted relative affinity”: 1.83 z-score.
For `GACGATATCGCGACTGGAGACGTGCTA`, “fitted relative affinity” read -0.165 z-score.
`CATCATTTTTCCCTCTGGAAGTGCTAG` — result for “fitted relative affinity”: 1.14 z-score.
For `GATGGACTGCTTATCCTGACGTGCTAG`, “fitted relative affinity” read -0.0946 z-score.
For `TTAGGTATCTGTATCGGTTAGTGCTAG`, “fitted relative affinity” read 3.93 z-score.
`GACGGTATCGGGTTTCAGGACGTGCTA` — result for “fitted relative affinity”: 4.66 z-score.
`TAAGGTATCGGGTTTCGGTTAGTGCTA`: “fitted relative affinity” 7.48 z-score.

Series 3
Target: RNA binding protein fox-1 homolog 2, RRM domain, GST-SBP tag (RBFOX2, Homo sapiens, UniProt O43251-10, residues 100-194)
Technique: RNA Bind-n-Seq
Form: RNA
Sample: in vitro
Concentration: 365 nM
Notes: natural RNA segment, single round, ends assumed
Reference: no-protein control
Reading: higher = stronger binding
`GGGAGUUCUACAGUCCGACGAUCGUAACCAAUGUCAUCUUGCUAAAUUCAUGUUUUGUACAAUUACUAAAUUGUAUACAUUUUGUUAUAGAAUACUUUUUCCAGUUGAGUAAAUUAUGAAAGGAAGUUAACAUUGGAAUUCUCGGGUGCCAA` — result for “RBNS enrichment (R)”: 0.643.
For `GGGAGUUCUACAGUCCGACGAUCGUCCUUGUUGGCUGAGGGCAGGACCUUGUAACCCUCUUCCAUGCACAACUUGCACACCCCCUGUUCCCUCACUGUGUGCCCAACCUCUUCCUUUUUCCUGGGAUUCUUUAUGGAAUUCUCGGGUGCCAA`, “RBNS enrichment (R)” read 1.46.
For `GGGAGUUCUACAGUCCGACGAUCGCCAGGCUGUGCUAGCAACACCCAAAGGUGGCCUGCGGGGAGCCAUCACCUAGGACUGACUCGGCAGUGUGCAGUGGUGCAUGCACUGUCUCAGCCAACCCGCUCCACUAUGGAAUUCUCGGGUGCCAA`, “RBNS enrichment (R)” read 0.593.
`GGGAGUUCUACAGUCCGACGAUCACAACUUUCUUUUGUAAAUUUUUCUUUCAUGCCAAAAAACAUGCGGGCAAUUUGUUGAUGAGGUGAAUUAGUUAUCCCUCUUCUUGUAGAAGACCCUUUAGCUACCCCUCUGGAAUUCUCGGGUGCCAA` — result for “RBNS enrichment (R)”: 0.407.
`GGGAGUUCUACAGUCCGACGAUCGUCCUCAAAAAGGACUUAGCCCCGGGAGUUGUUUAUAAAAUUUCCCCCACUUGUAUACAGUGUGCACUAAAAGAAAAUGUAUUUUAAUAUCUAAUGCCUGGGCUCUGAGCUGGAAUUCUCGGGUGCCAA` — result for “RBNS enrichment (R)”: 1.25.
Under “RBNS enrichment (R)”, `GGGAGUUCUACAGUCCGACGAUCGUCUUCUUGUGUGACUGUUUCUGUAUGAAGUAUAAAAAUUUGUGUGCCUUGAGCAAGUCUCAUUUUCUUUGUAAGCUGCCUCUUCCGCCAUUUCAUCUGAGGUUGCUGUCUGGAAUUCUCGGGUGCCAA` is recorded as 1.03.
Under “RBNS enrichment (R)”, `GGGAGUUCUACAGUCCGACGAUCCAUUGACGCUUGAGUGAGCACGCCAGCGUCCUUGUCCUUAUGGGAUGCCUCAGGAUCUUGUUUCUGACACCAGAAUGCAACAGAUGAGAAGCUUUUUGGUGUGAACUGGAUGGAAUUCUCGGGUGCCAA` is recorded as 0.42.

Mixed results
With `PhoQ, residues 284 288 289 292 302 303 AQGLTV` the fold induction was 2.22 (PhoP, residues 12 14 15 18 19 SQCLL (Escherichia coli, UniProt P23836); Sort-seq, measured: YFP reporter; E. coli; PhoQ-PhoP variant library, together with: 10 µM Mg2+; reference: high Mg2+ state, higher = stronger signaling).

Repeated from above (series 2):
`GACAATTTCGGGTATCGAGACGTGCTA` — result for “fitted relative affinity”: 1.83 z-score.
For `GACGATATCGCGACTGGAGACGTGCTA`, “fitted relative affinity” read -0.165 z-score.
